Measurements gathered from unrelated publications.
Parts stem from different laboratories: compare values within a part only. Changes are numbered by the printed parent chain.
Chain of UniProt Q15349 (whole entry, looked up): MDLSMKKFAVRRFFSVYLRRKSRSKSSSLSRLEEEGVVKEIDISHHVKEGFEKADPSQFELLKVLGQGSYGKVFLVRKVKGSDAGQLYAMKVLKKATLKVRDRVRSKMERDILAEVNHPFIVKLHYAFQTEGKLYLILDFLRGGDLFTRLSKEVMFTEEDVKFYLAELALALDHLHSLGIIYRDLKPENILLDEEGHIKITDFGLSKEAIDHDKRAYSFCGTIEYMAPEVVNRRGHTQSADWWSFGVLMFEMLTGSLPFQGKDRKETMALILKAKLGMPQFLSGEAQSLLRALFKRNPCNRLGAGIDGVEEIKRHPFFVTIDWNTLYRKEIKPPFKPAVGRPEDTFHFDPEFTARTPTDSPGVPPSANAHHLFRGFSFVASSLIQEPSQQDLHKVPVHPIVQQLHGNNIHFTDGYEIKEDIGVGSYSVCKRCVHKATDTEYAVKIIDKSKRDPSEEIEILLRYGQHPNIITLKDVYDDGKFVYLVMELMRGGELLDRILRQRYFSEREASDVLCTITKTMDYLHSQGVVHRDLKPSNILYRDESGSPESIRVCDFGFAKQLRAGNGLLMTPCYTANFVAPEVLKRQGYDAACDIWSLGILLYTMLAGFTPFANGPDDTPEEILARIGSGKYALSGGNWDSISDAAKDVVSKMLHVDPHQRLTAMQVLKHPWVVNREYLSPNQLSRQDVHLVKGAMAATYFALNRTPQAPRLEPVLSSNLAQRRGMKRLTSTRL
Chain of UniProt P45985 (whole entry, looked up): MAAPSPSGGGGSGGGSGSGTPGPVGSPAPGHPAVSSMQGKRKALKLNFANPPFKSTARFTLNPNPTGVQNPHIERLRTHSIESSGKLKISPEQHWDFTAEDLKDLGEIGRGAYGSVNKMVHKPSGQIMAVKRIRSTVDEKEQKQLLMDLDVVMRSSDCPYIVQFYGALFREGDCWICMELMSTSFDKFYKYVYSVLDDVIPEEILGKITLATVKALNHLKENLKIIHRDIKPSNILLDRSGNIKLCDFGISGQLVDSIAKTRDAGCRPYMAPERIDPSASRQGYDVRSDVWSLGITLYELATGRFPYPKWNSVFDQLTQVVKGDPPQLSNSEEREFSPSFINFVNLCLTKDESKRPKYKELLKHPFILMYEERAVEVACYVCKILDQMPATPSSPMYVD
Chain of UniProt Q13233 (whole entry, looked up): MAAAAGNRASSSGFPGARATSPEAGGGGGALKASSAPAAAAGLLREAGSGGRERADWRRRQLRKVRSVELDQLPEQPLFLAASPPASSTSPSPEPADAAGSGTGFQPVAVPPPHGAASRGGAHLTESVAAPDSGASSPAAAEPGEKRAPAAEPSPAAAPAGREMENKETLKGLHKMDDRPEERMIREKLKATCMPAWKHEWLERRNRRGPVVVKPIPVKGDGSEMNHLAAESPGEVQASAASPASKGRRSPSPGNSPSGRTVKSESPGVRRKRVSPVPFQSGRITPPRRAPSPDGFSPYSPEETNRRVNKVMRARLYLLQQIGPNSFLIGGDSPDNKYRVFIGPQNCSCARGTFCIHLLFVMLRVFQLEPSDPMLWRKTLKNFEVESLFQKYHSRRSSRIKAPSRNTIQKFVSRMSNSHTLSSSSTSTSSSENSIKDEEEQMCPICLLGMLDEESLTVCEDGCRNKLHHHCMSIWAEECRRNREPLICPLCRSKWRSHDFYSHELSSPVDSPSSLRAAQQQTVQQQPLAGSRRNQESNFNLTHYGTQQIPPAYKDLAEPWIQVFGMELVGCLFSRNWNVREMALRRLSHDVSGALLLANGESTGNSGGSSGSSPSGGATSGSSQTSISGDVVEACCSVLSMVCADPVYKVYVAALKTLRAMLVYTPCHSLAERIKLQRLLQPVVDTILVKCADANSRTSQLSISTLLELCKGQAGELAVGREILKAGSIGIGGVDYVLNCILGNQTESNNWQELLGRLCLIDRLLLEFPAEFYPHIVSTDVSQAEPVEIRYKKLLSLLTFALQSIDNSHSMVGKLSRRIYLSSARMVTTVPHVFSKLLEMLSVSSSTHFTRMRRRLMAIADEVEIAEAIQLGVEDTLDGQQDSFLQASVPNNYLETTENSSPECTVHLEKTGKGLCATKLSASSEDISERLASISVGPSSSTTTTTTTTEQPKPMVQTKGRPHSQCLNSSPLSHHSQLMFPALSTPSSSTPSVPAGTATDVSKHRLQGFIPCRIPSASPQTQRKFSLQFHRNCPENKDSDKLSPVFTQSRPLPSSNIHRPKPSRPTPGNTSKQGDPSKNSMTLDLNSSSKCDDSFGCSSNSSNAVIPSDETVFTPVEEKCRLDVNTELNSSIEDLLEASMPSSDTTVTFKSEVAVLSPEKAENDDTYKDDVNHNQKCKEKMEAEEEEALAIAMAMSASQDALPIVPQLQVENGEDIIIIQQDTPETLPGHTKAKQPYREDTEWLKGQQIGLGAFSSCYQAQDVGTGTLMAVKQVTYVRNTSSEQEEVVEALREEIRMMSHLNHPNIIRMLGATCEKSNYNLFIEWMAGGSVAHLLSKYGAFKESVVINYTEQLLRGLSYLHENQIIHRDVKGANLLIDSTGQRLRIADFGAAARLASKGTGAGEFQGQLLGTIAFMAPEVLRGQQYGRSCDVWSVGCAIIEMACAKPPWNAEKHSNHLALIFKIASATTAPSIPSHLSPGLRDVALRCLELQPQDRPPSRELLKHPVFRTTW
Chain of UniProt O75460 (whole entry, looked up): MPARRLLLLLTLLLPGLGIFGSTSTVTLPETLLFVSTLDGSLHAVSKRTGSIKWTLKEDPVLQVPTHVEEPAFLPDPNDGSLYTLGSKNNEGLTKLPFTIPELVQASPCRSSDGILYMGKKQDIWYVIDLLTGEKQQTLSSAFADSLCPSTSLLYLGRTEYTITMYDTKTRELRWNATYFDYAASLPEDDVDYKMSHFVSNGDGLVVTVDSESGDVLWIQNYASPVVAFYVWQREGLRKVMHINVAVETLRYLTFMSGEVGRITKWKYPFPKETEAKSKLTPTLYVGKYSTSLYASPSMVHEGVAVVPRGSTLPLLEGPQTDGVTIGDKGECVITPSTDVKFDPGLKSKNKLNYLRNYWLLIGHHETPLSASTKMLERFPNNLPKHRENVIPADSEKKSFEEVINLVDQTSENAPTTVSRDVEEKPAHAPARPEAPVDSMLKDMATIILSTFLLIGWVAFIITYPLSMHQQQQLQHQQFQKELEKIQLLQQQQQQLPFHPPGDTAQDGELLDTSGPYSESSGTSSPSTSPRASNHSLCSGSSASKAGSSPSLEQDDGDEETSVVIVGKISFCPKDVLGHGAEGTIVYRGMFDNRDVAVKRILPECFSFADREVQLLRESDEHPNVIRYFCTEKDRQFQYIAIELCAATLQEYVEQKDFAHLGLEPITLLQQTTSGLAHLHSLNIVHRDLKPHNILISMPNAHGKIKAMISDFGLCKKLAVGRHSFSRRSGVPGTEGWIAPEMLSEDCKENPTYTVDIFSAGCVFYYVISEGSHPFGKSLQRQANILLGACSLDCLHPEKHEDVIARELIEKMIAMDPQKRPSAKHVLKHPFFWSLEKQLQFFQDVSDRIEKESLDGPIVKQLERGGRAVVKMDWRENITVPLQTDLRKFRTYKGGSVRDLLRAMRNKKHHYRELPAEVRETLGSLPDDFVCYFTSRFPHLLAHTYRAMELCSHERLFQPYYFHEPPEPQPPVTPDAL

Series 1
SMILES: O=C(Nc1cccnn1)N1CC(C/C=C/c2cncc(Oc3ccc(C(F)(F)F)cn3)n2)C1
Effect on: cell-free assay
Technique: competition with immobilised ligand
Tested at: 1 µM
target | remaining binding
Serine/threonine-protein kinase/endoribonuclease IRE1 (ERN1, Homo sapiens, UniProt O75460) | 67%
Mitogen-activated protein kinase kinase kinase 1 (MAP3K1, Homo sapiens, UniProt Q13233) | 66%
Ribosomal protein S6 kinase alpha-2, N-terminal kinase domain (RPS6KA2, Homo sapiens, UniProt Q15349) | 100%
Dual specificity tyrosine-phosphorylation-regulated kinase 1B (DYRK1B, Homo sapiens, UniProt Q9Y463) | 100%
Dual specificity mitogen-activated protein kinase kinase 4 (MAP2K4, Homo sapiens, UniProt P45985) | 74%

Series 2
Target: Eukaryotic initiation factor 4A-I (EIF4A1, Homo sapiens, UniProt P60842, residues 1-406, full length assumed)
Chain of UniProt P60842 (whole entry, looked up): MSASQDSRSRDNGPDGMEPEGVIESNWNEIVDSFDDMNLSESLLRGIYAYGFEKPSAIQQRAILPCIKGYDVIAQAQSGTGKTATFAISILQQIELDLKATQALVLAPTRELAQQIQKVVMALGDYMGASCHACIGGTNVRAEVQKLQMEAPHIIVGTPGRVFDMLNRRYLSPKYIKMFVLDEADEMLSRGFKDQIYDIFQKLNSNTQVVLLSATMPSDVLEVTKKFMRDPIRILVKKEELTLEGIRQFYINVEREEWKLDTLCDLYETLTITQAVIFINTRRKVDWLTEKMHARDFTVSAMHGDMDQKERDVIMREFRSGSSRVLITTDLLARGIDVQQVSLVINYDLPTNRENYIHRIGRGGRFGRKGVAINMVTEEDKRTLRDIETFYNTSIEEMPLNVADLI
Technique: RNA Bind-n-Seq
Form: RNA
Medium: in vitro
Tested at: 90 pmol
Notes: 4-mer, random 30-nt RNA, single round
Together with: 3 µM iPr-DMDA-PatA, 2 mM ADP, 2 mM phosphate
Relative to: input library
Direction: higher = stronger binding
Oligonucleotide | 4-mer enrichment
CUCU | 0.919 fold
CCAG | 0.942 fold
AUCG | 1.05 fold
ACUA | 1.25 fold
AGAU | 1.38 fold
CGCA | 0.848 fold
ACGA | 1.31 fold
UCCA | 1.07 fold

Series 3
Target: Cyclin-dependent kinase 6, with cyclin D1 (CDK6, Homo sapiens, UniProt Q00534)
Chain of UniProt Q00534 (whole entry, looked up): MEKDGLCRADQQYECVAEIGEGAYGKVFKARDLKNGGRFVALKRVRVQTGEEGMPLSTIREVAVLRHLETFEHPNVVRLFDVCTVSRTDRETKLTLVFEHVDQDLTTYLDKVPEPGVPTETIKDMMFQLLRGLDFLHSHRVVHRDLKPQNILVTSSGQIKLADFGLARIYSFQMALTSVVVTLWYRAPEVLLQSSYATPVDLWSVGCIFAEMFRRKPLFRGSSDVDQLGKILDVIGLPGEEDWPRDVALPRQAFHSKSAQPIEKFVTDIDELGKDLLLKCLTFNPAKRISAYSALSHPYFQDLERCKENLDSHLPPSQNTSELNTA
Effect on: enzyme activity
Action: inhibitor
Tested at: 0.5 µM
Relative to: control
Structure (SMILES) | remaining activity
O=C(Nc1cccc(Nc2cc(Nc3cccc(C(F)(F)F)c3)ncn2)c1)C1CC1 | 99.1%
CN(C)c1ccc(C=C2C(=O)Nc3ccccc32)cc1 | 101%
COc1cc2ncnc(Nc3ccc(F)c(Cl)c3)c2cc1OCCCN1CCOCC1 | 98.7%
COc1ccc(C(=O)Nc2sc3c(c2C(N)=O)CCCC3)cc1OC | 95.1%
Nc1[nH]nc2nc3ccccc3nc12 | 105%
Cc1ccc(Nc2nccc(N(C)c3ccc4c(C)n(C)nc4c3)n2)cc1S(N)(=O)=O | 96.5%
Oc1ccc(-c2nc(-c3ccncc3)c(-c3ccc(F)cc3)[nH]2)cc1 | 97.6%
OCC(O)CCON=C1C(c2c(O)[nH]c3ccccc23)=Nc2ccccc21 (stereo not shown) | 27.7%
CO[C@H]1C[C@@H]2CC[C@@H](C)[C@@](O)(O2)C(=O)C(=O)N2CCCC[C@H]2C(=O)O[C@H]([C@H](C)C[C@@H]2CC[C@@H](O)[C@H](OC)C2)CC(=O)[C@H](C)/C=C(\C)[C@@H](O)[C@@H](OC)C(=O)[C@H](C)C[C@H](C)/C=C/C=C/C=C/1C | 99.8%
N#CC(C#N)=C(N)/C(C#N)=C/c1ccc(O)cc1 | 91.3%

Series 4
Target: CCNA2, cyclin fold, Cln2 fusion (human)
Technique: yeast growth competition, sequencing
Medium: yeast
Notes: strong parent motif
Relative to: not given
Direction: higher = stronger binding
Parent: E2F1 docking peptide (human); PPVKRRLDFETDH; partner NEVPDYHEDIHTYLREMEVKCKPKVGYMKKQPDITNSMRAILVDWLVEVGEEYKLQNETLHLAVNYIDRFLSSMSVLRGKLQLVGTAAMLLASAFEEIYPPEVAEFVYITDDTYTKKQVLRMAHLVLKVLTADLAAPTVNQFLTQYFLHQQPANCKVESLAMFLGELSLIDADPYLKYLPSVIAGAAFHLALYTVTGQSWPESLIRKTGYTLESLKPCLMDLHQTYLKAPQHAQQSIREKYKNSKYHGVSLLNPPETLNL
Substitution | normalised enrichment score
PPVKRRLDFWTDH [E10W] | 6.81
PPVKRRLDFEHDH [T11H] | 6.07
PPVKRRLCFETDH [D8C] | 6.28
PPVKRRIDFETDH [L7I] | 5.33
PPVKRRLDFSTDH [E10S] | 5.95
PPCKRRLDFETDH [V3C] | 5.52
PPVKRRKDFETDH [L7K] | 0.232
PPVKRRLDAETDH [F9A] | 0.49
